Experimental data pooled from the literature.
Every numbered part comes from another study and shows a few of its results, in no order. Changes are numbered by the printed parent chain.

Series 1 — technique: protein binding microarray; form: double-stranded DNA, one strand shown; sample: in vitro; tested at: not given; relative to: not given; reading: higher = stronger binding
Target: Histone acetyltransferase KAT6A, winged helix 1, GST fusion (KAT6A, Homo sapiens, UniProt Q92794, residues 1-85)
Notes: 8-mer, flanks averaged, mean of 2 arrays, mostly near background
Target sequence (chain): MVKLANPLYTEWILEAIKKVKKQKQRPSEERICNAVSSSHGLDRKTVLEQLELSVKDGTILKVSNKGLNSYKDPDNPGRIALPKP
Sequence | E-score
CGTTGAAA | -0.1
ATGCGGTC | 0.161
CACCGCGA | 0.261
CAGGAAGG | -0.127
ACTGCGTC | 0.159
ATGAATGC | 0.0135
AGCACACT | -0.0373
CGAGGTAG | -0.0436
CTCCACAC | -0.0885
AGTCGGCG | 0.292
ATGACGGC | 0.355
TAGGAAGA | -0.265
CACATAAC | -0.101
CACTAGAA | -0.12
AGCCAGAG | -0.158
CAGCCGGG | 0.165
CATCTTCC | -0.0183
AATAGCCA | -0.292
ATAGCGTG | 0.0797
AAATCTCG | -0.0775
ATTAAAAT | -0.042
GATACGGA | 0.164
CCGAACGA | -0.0533
GGGCCCCA | 0.0277
ACTCACTG | -0.185

Series 2 — target: CCNA1, cyclin fold, Cln2 fusion (human); technique: yeast growth competition, sequencing; sample: yeast; notes: weak parent motif; relative to: not given; reading: higher = stronger binding
Parent: E2F2 docking peptide (human); LPAKRKLDLEGIG
Variant | normalised enrichment score
LPAKRKLDLEAIG [G11A] | 0.0465
LPAARKLDLEGIG [K4A] | 0.728
APAKRKLDLEGIG [L1A] | 0.335
LPAKKKLDFEGIG [R5K L9F] | 0.987
LAAKRKLDLEGIG [P2A] | 0.21
LPAKRKLALEGIG [D8A] | 0.0152
LPAKAKADLEGIG [R5A L7A] | 0.361
LPAKKKLDLEGIG [R5K] | 0.116
LPAKRKLDAEGIG [L9A] | 0.226

Series 3 — technique: RNA Bind-n-Seq; form: RNA; sample: in vitro; tested at: 365 nM; relative to: no-protein control; reading: higher = stronger binding
Target: RNA binding protein fox-1 homolog 2, RRM domain, GST-SBP tag (RBFOX2, Homo sapiens, UniProt O43251-10, residues 100-194)
Notes: natural RNA segment, single round, ends assumed
Constant ends, left off below: GGGAGUUCUACAGUCCGACGAUC … UGGAAUUCUCGGGUGCCAA
Construct (chain): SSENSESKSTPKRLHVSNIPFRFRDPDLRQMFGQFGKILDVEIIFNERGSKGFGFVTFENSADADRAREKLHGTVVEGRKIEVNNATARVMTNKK
Sequence | RBNS enrichment (R)
AGUAGGGCCUGGGACCCCGAAUGUGAAUAUAACGUAGCAUCUUCGCUGGCUAUGGCCGUGCACUCCCCGUCCUGUCCACUUCUGAAACUCUUGUUCCUAACGACAACGUG | 0.544
CUUGGGAAGUUUUGUUGGGUCAAGAAGAGAGAACUCUGUUCUCGCACCACCGGGAUCUGUCCUGCAAAGUUGAAGGGAUCCUUUGGUGCCAGCUGGUGUUUGGAAGUAGG | 0.813
AGAUGCCAAGAUGCUGCCUACGUUUGCAAAAGUUGUCUAAGAAUUCACCAUGAGCUAUAUUUUCUUCUGGAUCUUUGACCAAGGUGAUGUCAGCUUAUUUCUGGGGAAGG | 0.717
UGCGCGUGGACUGGGCUGAGCUCCUCACCAUACACUAGUGCCGGCUUUUGUUUCCUGUAAACAGUGGUUGCAUGUGUAGGAAGUAACAAGCGAGUAUUCAGAUCAUACGA | 0.615
AAGUGAAUCUUUGUGAUUUUCAUUCUAGAAAACAAUGUUUUAAAUCACCCAAAUUUAAUCACAUGUCUUUAUAUCAUACCAGAUAACUGGUGUAGUGUAUCCUUUUACUG | 0.327
CUGUCCCCAGCCACACCUUGGGGCAUCCUCUCUGCCUGGCCCUGUCUGAUGAGCAUUUCUGUUGCUUCCAUCAGCCAGAGCUCUGCCAAAGGCCCCGCAUCCCCAUCCUA | 0.286
AUUUCUUUCAGGUCUCAACUGUGGUGUUUUAAGUGCAGGGAAAAGGAACAAUCACAGCUAUGUGUGACUUUCCUUUUCCCACCUCACCUUGAUGUAGGUGUUUCAAGUGA | 0.464
CACUCUUACAGGCACUUUAUAUUUCUUGCUGUAACUACAGCAAUCACAUACAGUACAGACAACCUCAAAAAUCUGUUUAUAUUAGUGUAAAUAGAAAAAUGGUAGACCGC | 0.286
CUUUAGACUACACAGGCAAUAAUCAAGUCUGCUGUUUUGGCCUUUCGUAGUAGAAGUGGUUGUAGUGUUUAGAUAUCUGUUUGGUCUUGCUUCUUGUAUUGCAUUUUUUU | 2.62
UCUUUCCUCCCUAAUUCCAAAAACCACAAAGGUUUCCCUGAGUGCAGAGAGAUCAGCCCACCCUGCAGACCCACAGAGAAGAUUCAGAGUGUGUGUGAGAGUGAGUGAGU | 0.236
UGAGGUUUUUCCUUCCCUGUGAAGAAAUACCAACCUUUGGACCCAAUAACAUUCAUAACUGGUAGAGACGUUUAUGUUGUUACAUGUGCUUUGUGUGUUGCUUUUAUUGA | 0.294
ACUGUUAGACUCUUUUCCACUUUCAACAAACUUGCAUGUCAGUUUCUGUCAUGUUUAUUUAUUGGAUUCUCUGCUGCCUGAUCUGUACAUACAUGAUCCCUCGGGUUUUG | 0.354

Series 4 — technique: DHFR PCA, deep sequencing; sample: yeast; with: (+)-ABA 0.11 µM; relative to: wild-type fitted maximum; reading: higher = stronger binding
Target: ABI1, truncated, D143A, DHFR fusion (Arabidopsis thaliana)
Notes: methotrexate growth selection, single substitutions
Parent: PYL1, truncated, DHFR fusion (Arabidopsis thaliana); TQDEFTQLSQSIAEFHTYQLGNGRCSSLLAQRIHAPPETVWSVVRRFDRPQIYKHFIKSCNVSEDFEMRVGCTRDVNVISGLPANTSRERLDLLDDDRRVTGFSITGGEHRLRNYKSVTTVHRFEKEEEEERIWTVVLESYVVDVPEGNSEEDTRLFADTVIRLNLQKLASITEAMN
Variant | relative binding score [%]
E14F | -0.8
R69F | 1.25
R45C | 4.49
A175N | 26
C72N | 8.92
G23R | 26.2
V78R | 36.3
F157I | 0.105
L166C | 0.0558
D153S | -0.335
S26M | 6.12
K58T | 2.38
F15N | -0.734
E64L | 7.37
E151L | 23.4
N85P | 0.405
K54G | -6.68
Q51I | -22.1
S27H | 8.05

Series 5 — technique: protein-binding microarray; form: double-stranded DNA, one strand shown; sample: in vitro; tested at: not given; reading: higher = stronger binding
Target: Transcription factor SOX-2, HMG box (SOX2, Homo sapiens, UniProt P48431, residues 19-118)
Sequence of UniProt P48431 (19-118, looked up): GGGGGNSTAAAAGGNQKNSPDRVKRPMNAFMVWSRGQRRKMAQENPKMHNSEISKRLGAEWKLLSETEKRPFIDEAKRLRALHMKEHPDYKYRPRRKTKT
Notes: k-mer, scored over probes, only values ≥0.25
Sequence | E-score
AATTTAG | 0.275
GACAATC | 0.353
AATAGCA | 0.267
ATTCAGG | 0.304
AAAGACA | 0.26
AATAACA | 0.356
GAAATAA | 0.25
CATACAA | 0.369
ATTATAC | 0.343
AAATAAT | 0.406
AATTGAC | 0.375
ATATTAA | 0.304
AATTTAA | 0.318
ATCAAAT | 0.283
CCATTCA | 0.435
AAAATTA | 0.299
AATGCGT | 0.258

Series 6 — technique: RNA Bind-n-Seq; form: RNA; sample: in vitro; tested at: 200 nM; notes: whole 134-nt RNA, ends assumed; with: 150 mM KCl; relative to: input library; reading: higher = stronger binding
Target: Ras GTPase-activating protein-binding protein 1, full length (G3BP1, Homo sapiens, UniProt Q13283)
Sequence of UniProt Q13283 (whole entry, looked up): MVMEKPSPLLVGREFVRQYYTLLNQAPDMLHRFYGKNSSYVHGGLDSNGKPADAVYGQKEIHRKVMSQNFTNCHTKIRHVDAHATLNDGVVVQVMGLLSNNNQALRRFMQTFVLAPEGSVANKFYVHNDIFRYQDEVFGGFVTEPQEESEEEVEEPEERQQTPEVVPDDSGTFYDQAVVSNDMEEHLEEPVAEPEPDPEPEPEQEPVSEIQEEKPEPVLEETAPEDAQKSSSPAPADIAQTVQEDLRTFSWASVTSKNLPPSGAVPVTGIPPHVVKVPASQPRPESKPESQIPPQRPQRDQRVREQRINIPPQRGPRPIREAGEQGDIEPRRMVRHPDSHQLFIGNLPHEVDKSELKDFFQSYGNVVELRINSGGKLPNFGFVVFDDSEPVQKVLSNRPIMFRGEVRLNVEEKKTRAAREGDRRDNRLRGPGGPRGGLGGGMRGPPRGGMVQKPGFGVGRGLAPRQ
Constant ends, left off below: GGGAGUUCUACAGUCCGACGAUC … UGGAAUUCUCGGGUGUCAAGG
Sequence | log2 enrichment
AAGUCCUGUGCUACACAUCGUAUGUACCGAAUCGGGAAAGGGGAAAGGGGAAAGGGGAAAGUAUUAUGUUACGCCGUUCGGAUCUGCACU | 0.217
UCAAGUCCUGUGCUACACAUCGUAUGUACCGAAUCGGAAAAAGGUGGAAAAAGGAAAGUAUUAUGUUACGCCGUUCGGAUCUGCACUUCC | -0.851
GAGGAGACUCUGCGCAGAGCACUUUGGGUCCGGAGGGCGAGACUCCGGCGGAAGCAUUCCCGGGCGGGUGACCCAGCACGGUCCCUCUUG | -1.34
CCUGUGCUACACAUCGUAUGUACCGAAUCGGGGUUUUUUGGGGUUUUUUGGUUUUUUGGGAAAGUAUUAUGUUACGCCGUUCGGAUCUGC | -0.669
CACAGACAACACGCACCCACACAGACACAGAGGGAAGGGGUUGGGAUGGGGACAGGGUGCACAGCAGGGAGGGGUAGGACCCCAGCCCCU | 1.79
CACAGACAACACGCACCCACACAGACACAGAGGGAAGGGGUUGGGAUGGGGACAGGGUGCACUGCAGGGCGGGGUAGGACCCCAGCCCCU | 1.68
UGGCCCUUGUGGCAUGCGGGGAGGAAGAGGUGGCCUCAUGGAUCGUGGUGGUCCCGGUGGAAUGUUCAGAGGUGGCCGUGGUGGAGACAG | 0.185
AGUCCUGUGCUACACAUCGUAUGUACCGAAUCGGGAAAAAAAGGGUGGGAAAAAGGGAAAGUAUUAUGUUACGCCGUUCGGAUCUGCACU | 0.0812
AGUCCUGUGCUACACAUCGUAUGUACCGAAUCGGAAAAAGGUUUUUUUGGUUUUUGGAAAGUAUUAUGUUACGCCGUUCGGAUCUGCACU | -1.88
UCAAGUCCUGUGCUACACAUCGUAUGUACCGAAUCGGAAAGGAAAAAGGUUUGGAAAGUAUUAUGUUACGCCGUUCGGAUCUGCACUUCC | -1.4
CCUGUGCUACACAUCGUAUGUACCGAAUCGGAAAAAAAGGAAAAAAAGGGAAAAAAAGGGGAAAGUAUUAUGUUACGCCGUUCGGAUCUG | -0.938
UGGCCCUGGUGGCAUGCGGGGAGGAAGAUGUGGCCUCAUGGAUCGUGGUGGUCCCGGUGGAAUGUUCAGAGGUGGCCGUGGUGGAGACAG | 0.298
CAAGUCCUGUGCUACACAUCGUAUGUACCGAAUCGGGUUUGGGGUUUGGGUUUGGGAAAGUAUUAUGUUACGCCGUUCGGAUCUGCACUU | 0.498
CUGUGCUACACAUCGUAUGUACCGAAUCGGGGAAAAAAAGGAAAAAAAGGGGAAAAAAAGGAAAGUAUUAUGUUACGCCGUUCGGAUCUG | -0.664

Series 7 — technique: universal PBM; form: double-stranded DNA, one strand shown; sample: in vitro; tested at: not given; reading: higher = stronger binding
Target: Sal-like protein 4, full length isoform B (SALL4, Homo sapiens, UniProt Q9UJQ4-2, residues 1-616)
Notes: 8-mer, flanks averaged, mean of replicates
Residues (chain): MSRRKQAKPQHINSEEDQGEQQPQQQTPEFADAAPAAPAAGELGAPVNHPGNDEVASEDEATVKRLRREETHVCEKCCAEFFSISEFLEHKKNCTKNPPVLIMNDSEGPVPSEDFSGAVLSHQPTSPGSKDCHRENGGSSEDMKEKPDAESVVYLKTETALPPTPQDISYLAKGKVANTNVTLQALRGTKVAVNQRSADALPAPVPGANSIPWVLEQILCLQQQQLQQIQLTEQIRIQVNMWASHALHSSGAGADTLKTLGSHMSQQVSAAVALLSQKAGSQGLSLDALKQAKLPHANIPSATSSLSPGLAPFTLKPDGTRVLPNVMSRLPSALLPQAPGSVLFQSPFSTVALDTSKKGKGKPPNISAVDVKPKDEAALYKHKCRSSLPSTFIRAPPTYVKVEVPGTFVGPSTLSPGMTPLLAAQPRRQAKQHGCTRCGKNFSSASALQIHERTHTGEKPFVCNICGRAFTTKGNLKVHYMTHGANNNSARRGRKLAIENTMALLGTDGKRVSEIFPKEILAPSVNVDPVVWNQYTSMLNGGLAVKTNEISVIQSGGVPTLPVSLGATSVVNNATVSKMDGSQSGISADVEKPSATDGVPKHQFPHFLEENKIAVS
Sequence | E-score
ATTTGTGC | 0.156
ATAAGCCG | 0.0996
CGGACACA | -0.222
ACCACTTA | 0.0579
AAAATGCG | 0.0866
AATGCGGG | -0.0755
CGAGTTAG | -0.101
CGAGTGCC | -0.254
GGGACGAA | -0.153
CCTTACCA | 0.106
GCGTCCCC | -0.296
ATTGGAGA | 0.233
ATTGGGAG | -0.0662
CCTCAGAA | -0.0852
CTTCTCAC | -0.0697
GTCGCCAC | -0.308
CAACCGAC | 0.00709
GAGTTCCA | -0.142
ACTCTTCA | 0.0871
AATACTAC | 0.268
CAGTGGTA | -0.0944
GAGGTCAA | -0.0713
